Measurements collected from several papers.
A part holds a random share of what one study measured. “And” joins repeats or separate records; there may be more than shown. Substitutions count along the parent as printed.
UniProt Q9NRP7, sequence (whole entry, looked up): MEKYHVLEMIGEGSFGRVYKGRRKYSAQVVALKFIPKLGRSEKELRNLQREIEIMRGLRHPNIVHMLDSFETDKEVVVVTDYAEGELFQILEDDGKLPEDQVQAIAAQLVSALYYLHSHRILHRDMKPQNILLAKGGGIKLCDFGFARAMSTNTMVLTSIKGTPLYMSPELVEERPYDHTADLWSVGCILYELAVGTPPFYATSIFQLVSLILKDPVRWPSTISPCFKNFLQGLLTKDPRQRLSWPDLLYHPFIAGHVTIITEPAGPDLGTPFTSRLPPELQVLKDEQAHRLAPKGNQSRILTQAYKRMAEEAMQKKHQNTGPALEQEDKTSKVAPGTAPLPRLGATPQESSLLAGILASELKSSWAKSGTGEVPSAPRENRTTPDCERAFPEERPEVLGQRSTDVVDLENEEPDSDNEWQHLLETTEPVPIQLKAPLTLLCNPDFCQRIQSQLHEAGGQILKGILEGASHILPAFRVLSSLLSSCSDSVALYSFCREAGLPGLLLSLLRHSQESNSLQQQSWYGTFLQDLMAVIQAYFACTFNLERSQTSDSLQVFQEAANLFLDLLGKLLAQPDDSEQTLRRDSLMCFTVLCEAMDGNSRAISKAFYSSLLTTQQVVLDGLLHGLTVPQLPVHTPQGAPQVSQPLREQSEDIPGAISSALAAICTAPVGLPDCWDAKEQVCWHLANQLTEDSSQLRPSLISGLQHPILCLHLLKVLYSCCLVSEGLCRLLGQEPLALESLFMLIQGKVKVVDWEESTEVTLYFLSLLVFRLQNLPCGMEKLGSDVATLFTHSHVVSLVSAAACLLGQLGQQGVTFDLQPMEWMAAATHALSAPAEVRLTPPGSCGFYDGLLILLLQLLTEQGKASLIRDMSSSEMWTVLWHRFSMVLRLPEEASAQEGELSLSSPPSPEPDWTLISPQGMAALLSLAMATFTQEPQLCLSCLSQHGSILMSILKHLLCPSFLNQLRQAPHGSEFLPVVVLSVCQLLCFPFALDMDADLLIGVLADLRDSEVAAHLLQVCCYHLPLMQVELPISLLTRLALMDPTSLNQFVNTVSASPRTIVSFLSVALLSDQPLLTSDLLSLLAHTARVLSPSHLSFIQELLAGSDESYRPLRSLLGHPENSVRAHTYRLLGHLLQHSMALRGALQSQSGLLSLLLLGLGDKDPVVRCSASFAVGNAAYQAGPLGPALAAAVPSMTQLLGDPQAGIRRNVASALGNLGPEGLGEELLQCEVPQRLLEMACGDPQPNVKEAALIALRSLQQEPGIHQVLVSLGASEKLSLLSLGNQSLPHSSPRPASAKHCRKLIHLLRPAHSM
UniProt P16591, sequence (whole entry, looked up): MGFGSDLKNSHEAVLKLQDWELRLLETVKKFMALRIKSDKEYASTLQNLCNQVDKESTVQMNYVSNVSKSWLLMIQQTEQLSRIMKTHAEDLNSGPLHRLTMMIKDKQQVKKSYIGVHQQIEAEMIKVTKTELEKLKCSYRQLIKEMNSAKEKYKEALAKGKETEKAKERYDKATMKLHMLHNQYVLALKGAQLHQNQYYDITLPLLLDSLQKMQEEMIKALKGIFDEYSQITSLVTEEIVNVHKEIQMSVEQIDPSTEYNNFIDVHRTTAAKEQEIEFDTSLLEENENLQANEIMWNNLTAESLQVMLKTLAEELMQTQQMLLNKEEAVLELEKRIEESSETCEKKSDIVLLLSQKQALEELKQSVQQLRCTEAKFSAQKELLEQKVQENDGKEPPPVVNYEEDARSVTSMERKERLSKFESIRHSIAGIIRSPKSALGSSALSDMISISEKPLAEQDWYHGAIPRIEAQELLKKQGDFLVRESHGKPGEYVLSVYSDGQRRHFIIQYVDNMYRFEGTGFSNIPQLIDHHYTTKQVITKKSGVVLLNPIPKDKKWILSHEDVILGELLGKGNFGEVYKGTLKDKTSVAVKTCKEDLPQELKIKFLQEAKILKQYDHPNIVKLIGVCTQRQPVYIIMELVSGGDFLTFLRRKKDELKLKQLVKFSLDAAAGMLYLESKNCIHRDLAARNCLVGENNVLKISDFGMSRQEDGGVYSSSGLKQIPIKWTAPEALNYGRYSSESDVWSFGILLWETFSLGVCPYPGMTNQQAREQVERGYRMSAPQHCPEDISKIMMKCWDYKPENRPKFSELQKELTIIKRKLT
UniProt P19525, sequence (whole entry, looked up): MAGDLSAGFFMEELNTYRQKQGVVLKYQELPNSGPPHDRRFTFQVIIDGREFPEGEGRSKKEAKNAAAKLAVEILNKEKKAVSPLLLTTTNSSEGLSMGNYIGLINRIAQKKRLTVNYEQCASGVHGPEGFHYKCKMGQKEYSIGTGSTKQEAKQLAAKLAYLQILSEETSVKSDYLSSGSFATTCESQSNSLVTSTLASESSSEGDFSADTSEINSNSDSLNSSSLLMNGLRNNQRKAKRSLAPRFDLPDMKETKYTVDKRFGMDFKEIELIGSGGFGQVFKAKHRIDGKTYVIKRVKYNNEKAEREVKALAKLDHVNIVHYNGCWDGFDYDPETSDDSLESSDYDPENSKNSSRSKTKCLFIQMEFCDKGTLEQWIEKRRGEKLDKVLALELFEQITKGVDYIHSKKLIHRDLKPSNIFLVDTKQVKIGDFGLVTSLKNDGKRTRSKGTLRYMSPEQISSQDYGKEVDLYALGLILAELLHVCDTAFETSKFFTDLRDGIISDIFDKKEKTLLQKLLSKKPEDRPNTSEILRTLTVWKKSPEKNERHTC
UniProt Q9UPE1, sequence (whole entry, looked up): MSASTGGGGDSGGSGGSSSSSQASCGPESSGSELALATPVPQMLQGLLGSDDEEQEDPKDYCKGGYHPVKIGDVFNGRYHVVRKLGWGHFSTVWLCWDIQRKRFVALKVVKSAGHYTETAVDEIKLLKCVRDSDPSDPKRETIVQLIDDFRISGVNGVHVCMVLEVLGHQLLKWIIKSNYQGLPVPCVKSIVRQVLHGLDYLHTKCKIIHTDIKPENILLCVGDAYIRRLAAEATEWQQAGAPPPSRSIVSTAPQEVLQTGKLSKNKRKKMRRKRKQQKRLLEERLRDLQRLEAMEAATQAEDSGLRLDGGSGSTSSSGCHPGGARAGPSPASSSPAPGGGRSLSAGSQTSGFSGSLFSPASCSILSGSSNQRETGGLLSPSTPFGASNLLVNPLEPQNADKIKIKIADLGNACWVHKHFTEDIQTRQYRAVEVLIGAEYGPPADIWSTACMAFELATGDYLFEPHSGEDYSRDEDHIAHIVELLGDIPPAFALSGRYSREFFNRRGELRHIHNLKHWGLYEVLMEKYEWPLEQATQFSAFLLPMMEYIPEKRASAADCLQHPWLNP
UniProt P49137, sequence (whole entry, looked up): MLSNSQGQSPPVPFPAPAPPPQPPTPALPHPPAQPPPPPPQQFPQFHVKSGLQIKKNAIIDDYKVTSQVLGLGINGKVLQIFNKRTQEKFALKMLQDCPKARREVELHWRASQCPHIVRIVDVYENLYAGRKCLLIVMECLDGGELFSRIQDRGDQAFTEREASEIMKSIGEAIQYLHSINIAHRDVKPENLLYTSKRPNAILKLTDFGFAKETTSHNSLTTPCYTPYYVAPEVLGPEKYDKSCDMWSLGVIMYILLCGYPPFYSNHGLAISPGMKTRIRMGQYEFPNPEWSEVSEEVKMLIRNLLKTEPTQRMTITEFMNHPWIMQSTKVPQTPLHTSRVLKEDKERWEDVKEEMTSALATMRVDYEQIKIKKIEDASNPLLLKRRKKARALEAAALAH
UniProt Q9UQ88, sequence (whole entry, looked up): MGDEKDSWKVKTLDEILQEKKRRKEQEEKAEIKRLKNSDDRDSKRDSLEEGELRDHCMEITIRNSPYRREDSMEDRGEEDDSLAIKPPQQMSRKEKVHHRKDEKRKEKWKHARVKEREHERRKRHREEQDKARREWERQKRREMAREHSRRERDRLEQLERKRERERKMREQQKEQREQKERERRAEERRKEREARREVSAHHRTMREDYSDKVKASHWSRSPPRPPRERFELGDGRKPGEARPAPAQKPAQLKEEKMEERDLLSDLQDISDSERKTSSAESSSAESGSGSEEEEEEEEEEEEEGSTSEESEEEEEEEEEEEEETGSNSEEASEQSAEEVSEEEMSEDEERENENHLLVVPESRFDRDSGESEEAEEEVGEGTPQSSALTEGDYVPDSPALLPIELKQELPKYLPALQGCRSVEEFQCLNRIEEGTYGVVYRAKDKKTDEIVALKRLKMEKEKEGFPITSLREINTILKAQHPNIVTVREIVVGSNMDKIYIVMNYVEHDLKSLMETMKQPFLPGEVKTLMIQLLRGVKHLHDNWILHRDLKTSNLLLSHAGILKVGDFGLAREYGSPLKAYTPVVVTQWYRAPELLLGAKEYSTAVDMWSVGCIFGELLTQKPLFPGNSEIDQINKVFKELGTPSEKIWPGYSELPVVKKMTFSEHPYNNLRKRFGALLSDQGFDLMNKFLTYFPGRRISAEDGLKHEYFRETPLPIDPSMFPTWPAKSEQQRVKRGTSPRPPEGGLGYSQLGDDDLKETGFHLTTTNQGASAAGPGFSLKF
UniProt O95747, sequence (whole entry, looked up): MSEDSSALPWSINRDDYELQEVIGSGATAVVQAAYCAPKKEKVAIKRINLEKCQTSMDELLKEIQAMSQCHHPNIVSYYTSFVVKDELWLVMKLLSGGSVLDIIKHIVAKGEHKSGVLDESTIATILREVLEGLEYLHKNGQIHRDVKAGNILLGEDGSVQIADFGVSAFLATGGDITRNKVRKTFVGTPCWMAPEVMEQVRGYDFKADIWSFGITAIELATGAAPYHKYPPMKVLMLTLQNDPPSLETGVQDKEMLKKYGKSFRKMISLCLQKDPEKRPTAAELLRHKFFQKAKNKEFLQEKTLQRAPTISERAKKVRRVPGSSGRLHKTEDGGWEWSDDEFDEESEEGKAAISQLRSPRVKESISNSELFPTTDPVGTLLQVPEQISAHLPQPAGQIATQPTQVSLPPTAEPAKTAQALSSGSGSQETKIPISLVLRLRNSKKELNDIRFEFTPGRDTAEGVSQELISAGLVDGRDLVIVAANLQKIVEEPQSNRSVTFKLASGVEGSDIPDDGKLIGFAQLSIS

Block 1
Target: CCNF, cyclin fold, Cln2 fusion (human)
Method: yeast growth competition, sequencing
Medium: yeast
Notes: strong parent motif
Relative to: not given
Reading: higher = stronger binding
Starting sequence: viral docking peptide; PTARRRLLHDLDT
Change | normalised enrichment score
R5A R6A L7A L8A | -0.355
R5K L8F | 6.01
P1A | 2.6
D10A | 2.02
L8A | -0.0979
R4A | 1.04
R6A | 3.5
L8F | 8.74

Block 2
SMILES: CC[C@@H](C)c1nc2cc(Nc3ccnc4ccc(S(=O)(=O)C(C)C)cc34)ccc2s1.Cl
Method: CCK-8
cell line | tested at | added | survival
L929 RIPK3-/- reexpressing RIPK3 K51A/R69H | 6.25 µM | zVAD | 99.9% and 100% and 101% and 99.6%
L929 RIPK3-/- reexpressing RIPK3 K51A | 50 µM |  | 53.5% and 52% and 26.3% and 27.4%
L929 RIPK3-/- reexpressing RIPK3 K51A | 25 µM |  | 108% and 112% and 89.9% and 88.4% and 90.4%

Block 3
Target: HLA class I histocompatibility antigen, C alpha chain, allele C*04:01 (Homo sapiens, UniProt P10321)
Effect on: peptide-MHC binding
Form: peptide
Tested at: concentration not given
Sequence | binding
NTDEIPELI | inactive
LTIPTIMGR | inactive
TYLQSLASL | inactive
RPRCAYLPF | inactive
FPIQDFPII | inactive
YMWECPDFF | active
YLRKHIRAL | inactive
DEVEFLGHY | inactive

Block 4
Compound: Cn1cncc1[C@](O)(COc1ccc(C#N)cc1-c1ccc(OC(F)(F)F)cc1)c1ccc(C#N)cc1
Tested at: 1 µM
target | effect on | method | remaining binding [%]
TSSK3 (Homo sapiens, UniProt Q96PN8) | cell-free assay | competition with immobilised ligand | 98
IRAK3 (Homo sapiens, UniProt Q9Y616) | cell-free assay | competition with immobilised ligand | 71
STK36 (Homo sapiens, UniProt Q9NRP7) | cell-free assay | competition with immobilised ligand | 80
BMPR1B (Homo sapiens, UniProt O00238) | cell-free assay | competition with immobilised ligand | 77
Tyrosine-protein kinase ABL1, phosphorylated (ABL1, Homo sapiens, UniProt P00519, T315I) | cell-free assay | competition with immobilised ligand | 84
CDK2 (Homo sapiens, UniProt P24941) | cell-free assay | competition with immobilised ligand | 95
EIF2AK2 (Homo sapiens, UniProt P19525) | cell-free assay | competition with immobilised ligand | 100
Ribosomal protein S6 kinase alpha-4, N-terminal kinase domain (RPS6KA4, Homo sapiens, UniProt O75676) | cell-free assay | competition with immobilised ligand | 89
Myosin-IIIa (MYO3A, Homo sapiens, UniProt Q8NEV4) | binding | competition with immobilised ligand | 100
FGFR3 (Homo sapiens, UniProt P22607, G697C) | cell-free assay | competition with immobilised ligand | 60
PIP4K2B (Homo sapiens, UniProt P78356) | cell-free assay | competition with immobilised ligand | 100
MET (Homo sapiens, UniProt P08581, Y1235D) | cell-free assay | competition with immobilised ligand | 78
EPHA1 (Homo sapiens, UniProt P21709) | cell-free assay | competition with immobilised ligand | 38
MAPKAPK2 (Homo sapiens, UniProt P49137) | cell-free assay | competition with immobilised ligand | 63
WNK2 (Homo sapiens, UniProt Q9Y3S1) | cell-free assay | competition with immobilised ligand | 67
NEK3 (Homo sapiens, UniProt P51956) | cell-free assay | competition with immobilised ligand | 96
CDK11A (Homo sapiens, UniProt Q9UQ88) | binding | competition with immobilised ligand | 100
OXSR1 (Homo sapiens, UniProt O95747) | cell-free assay | competition with immobilised ligand | 100
CSNK1E (Homo sapiens, UniProt P49674) | cell-free assay | competition with immobilised ligand | 77
FER (Homo sapiens, UniProt P16591) | cell-free assay | competition with immobilised ligand | 83
CASK (Homo sapiens, UniProt O14936) | cell-free assay | competition with immobilised ligand | 83
FLT3 (Homo sapiens, UniProt P36888, K663Q) | cell-free assay | competition with immobilised ligand | 90
SIK1 (Homo sapiens, UniProt P57059) |  | competition binding | 95
EGFR (Homo sapiens, UniProt P00533, L858R/T790M) | cell-free assay | competition with immobilised ligand | 100
EGFR (Homo sapiens, UniProt P00533, del747-750/T751S) | cell-free assay | competition with immobilised ligand | 80

Further values, each from its own experiment
Structure (SMILES) | tested on | test | setting | how to read | endpoint | value
Cl.OC1CCCCC1N1CCC(c2ccccc2)CC1 (racemic) | Sarcocystis neurona | parasite growth | concentration not given, secondary screen |  | inhibition | -37.2%
OCC[N+]12CN3CN(CN(C3)C1)C2 | mouse MPNST tumor cells | high-content immunofluorescence imaging, item: nuclear SOX9 | 10 µM, 12 h, mean of 2 replicates | relative to: DMSO control, higher = more nuclear SOX9 | nuclear SOX9 intensity | 103 % of DMSO
COc1cc(N)c(Cl)cc1C(=O)NC1CN2CCC1CC2.Cl (centres unmarked) | Sarcocystis neurona | parasite growth | concentration not given, secondary screen |  | inhibition | -27.3%
NCC(O)c1ccc(O)cc1 (racemic) | mouse MPNST tumor cells | high-content immunofluorescence imaging, item: nuclear SOX9 | 10 µM, 12 h, mean of 2 replicates | relative to: DMSO control, higher = more nuclear SOX9 | nuclear SOX9 intensity | 90.2 % of DMSO
COc1ccc2[nH]cc(C3=CCNCC3)c2c1.O=C(O)CCC(=O)O | Sarcocystis neurona | parasite growth | concentration not given, secondary screen |  | inhibition | -27.9%
CC(C)(C)c1cc(C=C(C#N)C#N)cc(Br)c1O | SRPK3 (Homo sapiens, UniProt Q9UPE1) | enzyme activity, inhibitor | 0.5 µM | relative to: control | remaining activity | 79.4%
